Assay results gathered from unrelated publications.
Each numbered part is a random draw from the data of one study; scales do not carry over between parts.

Block 1
Target: Sal-like protein 4, full length isoform A (SALL4, Homo sapiens, UniProt Q9UJQ4, residues 1-1053)
Sequence of UniProt Q9UJQ4 (whole entry, looked up): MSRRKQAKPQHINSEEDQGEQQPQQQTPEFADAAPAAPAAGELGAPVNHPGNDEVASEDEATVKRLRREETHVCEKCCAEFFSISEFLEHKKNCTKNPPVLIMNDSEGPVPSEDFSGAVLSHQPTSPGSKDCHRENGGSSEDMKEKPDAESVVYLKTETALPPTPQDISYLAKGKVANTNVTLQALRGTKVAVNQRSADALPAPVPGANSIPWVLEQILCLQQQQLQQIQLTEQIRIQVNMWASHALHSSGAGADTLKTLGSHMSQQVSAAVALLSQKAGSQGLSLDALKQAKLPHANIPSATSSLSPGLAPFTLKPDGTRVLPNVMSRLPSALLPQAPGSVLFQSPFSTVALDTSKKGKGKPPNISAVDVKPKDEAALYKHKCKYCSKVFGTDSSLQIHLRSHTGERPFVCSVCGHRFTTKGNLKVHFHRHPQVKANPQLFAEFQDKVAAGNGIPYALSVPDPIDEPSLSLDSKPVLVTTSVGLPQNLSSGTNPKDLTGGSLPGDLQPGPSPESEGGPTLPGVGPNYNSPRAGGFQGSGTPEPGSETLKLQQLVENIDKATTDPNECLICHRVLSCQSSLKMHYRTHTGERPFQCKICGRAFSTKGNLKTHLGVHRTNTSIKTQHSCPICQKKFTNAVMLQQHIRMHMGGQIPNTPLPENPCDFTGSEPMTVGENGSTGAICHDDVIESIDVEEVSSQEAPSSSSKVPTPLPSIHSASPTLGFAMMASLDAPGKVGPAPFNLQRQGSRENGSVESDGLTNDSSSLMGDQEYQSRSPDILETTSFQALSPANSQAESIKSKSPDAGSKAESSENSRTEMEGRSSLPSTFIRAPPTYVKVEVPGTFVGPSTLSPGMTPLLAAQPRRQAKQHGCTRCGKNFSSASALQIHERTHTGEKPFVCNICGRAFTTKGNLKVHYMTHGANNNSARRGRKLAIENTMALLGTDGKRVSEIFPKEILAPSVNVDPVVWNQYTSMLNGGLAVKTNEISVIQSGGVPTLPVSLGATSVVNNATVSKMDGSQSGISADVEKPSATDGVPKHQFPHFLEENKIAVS
Method: universal PBM
Molecule type: double-stranded DNA, one strand shown
Sample: in vitro
Tested at: 600 nM
Setting: 8-mer, flanks averaged, mean of replicates
Reading: higher = stronger binding
Oligonucleotide	E-score
AGAATGGC	-0.0464
AGAGGCAA	0.00483
ACTCTATC	0.119
ACTTCTTA	0.154
CCGTTCAA	-0.03
CCGGCCGA	-0.314

Block 2
Target: Phosphate system positive regulatory protein PHO4, full length, GST-tagged (PHO4, Saccharomyces cerevisiae, UniProt P07270, residues 1-312)
Method: competition protein-binding microarray
Molecule type: double-stranded DNA, one strand shown
Sample: in vitro
Tested at: 2 µM
Setting: whole 60-bp probe, lowest competitor level
Together with: Cbf1 competitor, 0.05 µM
Reading: higher = stronger binding
Shared flanks, not repeated: … GTCTTGATTCGCTTGACGCTGCTG
Construct (chain): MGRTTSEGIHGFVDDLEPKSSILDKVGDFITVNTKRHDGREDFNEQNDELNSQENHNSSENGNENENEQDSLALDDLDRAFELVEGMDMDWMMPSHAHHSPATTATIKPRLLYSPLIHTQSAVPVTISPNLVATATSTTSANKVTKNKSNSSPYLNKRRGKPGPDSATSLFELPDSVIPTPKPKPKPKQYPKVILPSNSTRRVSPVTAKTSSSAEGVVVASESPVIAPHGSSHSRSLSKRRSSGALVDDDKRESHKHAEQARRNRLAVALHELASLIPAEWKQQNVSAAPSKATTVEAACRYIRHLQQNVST
Oligonucleotide	fluorescence intensity [a.u.]
CCGACGTCGGAGAGGCAGGTGATGTTCGGCTCGGCC	3760
AAAGCGGTAATTTGACCGGTGGGTGCAGATATCTAT	3870
CATACCCAACCTTGTGTCGTGGGTGAAGATATTTGT	7400
GTCTTGTCTCATTGTCACAGCACTTTCCCCACTTCA	4660
AAGGGACGGATTCAAGCCGTGTCTGTGAGCATCCAT	4210
AAAGCGGTAATTTGGACTGTGGGTGCAGATATCTAT	3850

Block 3
Target: Histone acetyltransferase KAT6A, both winged helices, GST fusion (KAT6A, Homo sapiens, UniProt Q92794, residues 1-181)
Method: protein binding microarray
Molecule type: double-stranded DNA, one strand shown
Sample: in vitro
Tested at: not given
Setting: 8-mer, flanks averaged, mean of 2 arrays, mostly near background
Baseline: not given
Reading: higher = stronger binding
Residues (chain): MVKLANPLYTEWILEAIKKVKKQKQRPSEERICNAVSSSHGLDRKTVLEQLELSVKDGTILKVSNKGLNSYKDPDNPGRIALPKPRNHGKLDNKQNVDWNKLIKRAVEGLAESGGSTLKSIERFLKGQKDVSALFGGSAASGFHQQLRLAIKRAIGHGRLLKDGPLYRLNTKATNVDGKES
Oligonucleotide	E-score
AAGAGCCG	0.163
GAATCATA	-0.0894
GGGGACAC	-0.234
CCAATTGG	-0.133
GGGAACAC	-0.0256

Mixed results
Substance	target	test	system	setting	scale	quantity	value
PhoQ, residues 284 288 289 292 302 303 ASTSDA	PhoP, residues 12 14 15 18 19 SQCLL (Escherichia coli, UniProt P23836)	Sort-seq, measured: YFP reporter	E. coli	PhoQ-PhoP variant library, together with: 10 µM Mg2+	baseline: high Mg2+ state, higher = stronger signaling	fold induction	12.6

For quick reference, copied from above (block 1):
Oligonucleotide	E-score
AGAGGCAA	0.00483
